# Results of several laboratories.
# Protocols differ between the studies behind these lines. Numbers after ± are the reported error.
Structure (SMILES),cell line,assay,conditions,scale,quantity,value
Cc1n[nH]c2nc(-c3ccc(Cl)cc3)c3c(NC(=O)c4ccccc4)nnc-3n12,786-0,NCI60 SRB,10 µM,,growth percent,103%
NC(=O)[C@H](CCCN=C(N)CCl)NC(=O)c1ccccc1,OCI-Ly1,,"1 µM, 120 h",,viability,163%
CN1CC[C@H](c2c(O)cc(O)c3c(=O)cc(-c4ccccc4Cl)oc23)[C@H](O)C1,COS-7,,"100 µM, 24 h, 0.1% DMSO, unit not given",relative to: control,confluence,0.66 ± 0.03
C=CC(=O)N1[C@@H](c2ccc3c(c2)OCO3)c2[nH]c3ccccc3c2C[C@H]1C(=O)NC,rat DRG neurons,,"0.004572 µM, 48 h, added: vincristine 40 nM",,mean neuron degeneration,90%
c1ccc2c(Cc3c[nH]c4ccccc34)c[nH]c2c1,OCI-Ly1,,"1 µM, 120 h",,viability,138%
C=C1C(=O)O[C@H]2[C@H]1CC/C(C)=C/CC[C@@]1(C)O[C@@H]21,iPSC-derived cardiomyocytes,concentration-response fit,,relative to: vehicle,fitted bottom MyBP-C/MYH ratio,0%
COc1cnc2cccc(N3CCc4c(cc(Cn5ccnc5C)cc4-c4cn(C)nc4C(F)(F)F)C3=O)c2c1,SNU308,cell growth,120 h,,EC50,232 nM
COc1ccc(NC(=S)N/N=C/c2cccc3cc4ccccc4nc23)cc1,HeLa,PI flow cytometry,"IC50, 48 h",,G2/M phase cells,12.5 ± 2.8%
CCn1cc(-c2cc(Cn3ccoc3=N)cc3c2CCN([C@@H](C)c2cc(OC)ccn2)C3=O)c(C(F)(F)F)n1,RERF-LC-Ad2,"cell growth, inhibitor",120 h,,EC50,429 nM
COc1cc2ncnc(Nc3ccc(Oc4ccccc4)cc3C)c2cc1OC.O=C(O)C(F)(F)F,LoVo (KRAS G13D),"cell viability, resazurin","0.3 µM, 72 h, added: trametinib 0 nM",relative to: DMSO,average fractional effect,-0.122%
Cc1cccc(-c2[nH]c(CNc3ccccc3F)nc2-c2ccc3ncnn3c2)n1,MM1.S,XTT,1.4 µM,relative to: untreated,viability,51%
O=C([C@@H](Cc1cccc(C(F)(F)F)c1)NS(=O)(=O)c1cc(F)c2c(c1)CCNC2)N1CCCC1,OCI-Ly1,,"1 µM, 120 h",,viability,94.3%
COc1c(O)c(C)cc2c1C(=O)c1c(O)cccc1C2=O,HepaRG co-cultured with HK-2,MTT,"33.33 µM, 24 h",relative to: untreated control,cell viability,91 ± 13.7%
CCc1cnc(N2CCC(c3nc(COc4ccc(-n5cnnn5)cc4)cs3)CC2)nc1,HEK293T,"RNA-seq, measured: HSPD1 mRNA","10 µM, 6 h",relative to: vehicle,log2 fold change,-0.0575
C[C@H]1[C@H](C)CC[C@]2(C)CC[C@]3(C)C(=CC(=O)[C@@H]4[C@@]5(C)CC[C@@H](O)[C@](C)(C(=O)NCc6cn(-c7cccc(Br)c7)nn6)[C@@H]5CC[C@]43C)[C@H]12,human PBMCs,flow cytometry,5 µM,relative to: CD8+ T cells,TIGIT positive cells,9.83%
[Cl-].[Cl-].[Ru+2].c1cnc2c(c1)ccc1cccnc12.c1cnc2c(c1)ccc1cccnc12.c1csc(-c2ccc(-c3ccc(-c4nc5c6cccnc6c6ncccc6c5[nH]4)s3)s2)c1,SK-MEL-28,,"concentration not given, 1% O2, added: 633 nm light",,photocytotoxicity,inactive
CCOC(=O)NCCCC(=O)NCCc1ccccc1,OCI-Ly1,,"0.5 µM, 120 h",,viability,155%
C=C1C(=O)O[C@@H]2C[C@@]3(C)CCCC(=C)[C@@H]3C[C@H]12,COS-7,,"30 µM, 24 h, 0.1% DMSO, unit not given",relative to: vehicle control,apoptotic cells,1.53 ± 0.52
NC(=O)c1cccc(N)c1,OCI-Ly1,,"0.5 µM, 120 h",,viability,68.2%
COc1cc(NC(C)CCCN)c2ncccc2c1 (stereo not drawn),iPSC-derived cardiomyocytes,"concentration-response curve, measured: MyBP-C protein level",24 h,,EC50,11900 nM
CC(=O)Nc1ccc(C(=O)Nc2ccccc2N)cc1,OCI-Ly1,,"1 µM, 120 h",,viability,46.5%
COc1c(O)cc2c(c1O)C(=O)c1c(cc(C)c(O)c1OC)C2=O,HepaRG co-cultured with HK-2,MTT,"66.67 µM, 24 h",relative to: untreated control,cell viability,92.7 ± 11%
Cn1cc(-c2ccc(-c3cncc(Cl)c3N3CCC4(CCNC4=O)CC3)cc2)cn1,COLO 205,"gene expression, microarray, measured: SLC2A1 mRNA","concentration not given, 6 h",relative to: untreated cells,log2 fold change,3.07
Cc1cc(Nc2ncc(Cl)c(Nc3ccccc3S(=O)(=O)C(C)C)n2)c(OC(C)C)cc1C1CCNCC1,CLB-GE,"phosphoproteomics LC-MS/MS, measured: BCR phosphorylation","200 nM, 60 min",relative to: untreated,log2 fold change,-2.21
Cc1nc2cc(NCc3ccc(C(F)(F)F)cc3)ccc2s1,sample A patient iPSC-derived NPCs,MTS,"10 µM, 24 h",relative to: vehicle,viability,101 ± 1.51%
CC(C)(C)OC(=O)CN(Cc1ccc(Cl)cc1)Cc1ccc([N+](=O)[O-])s1,OCI-Ly1,,"0.5 µM, 120 h",,viability,130%
COc1cc(/C=C/C(=O)N2CCC=CC2=O)cc(OC)c1OC,MDA-MB-468,"qRT-PCR, measured: NQO1","30 µM, 6 h",relative to: time zero,mRNA level,127 ± 19.5%

# For quick reference, copied from above:
Structure (SMILES),cell line,assay,conditions,scale,quantity,value
Cc1n[nH]c2nc(-c3ccc(Cl)cc3)c3c(NC(=O)c4ccccc4)nnc-3n12,786-0,NCI60 SRB,10 µM,,growth percent,103%
Cc1cccc(-c2[nH]c(CNc3ccccc3F)nc2-c2ccc3ncnn3c2)n1,MM1.S,XTT,1.4 µM,relative to: untreated,viability,51%
CCOC(=O)NCCCC(=O)NCCc1ccccc1,OCI-Ly1,,"0.5 µM, 120 h",,viability,155%
CCn1cc(-c2cc(Cn3ccoc3=N)cc3c2CCN([C@@H](C)c2cc(OC)ccn2)C3=O)c(C(F)(F)F)n1,RERF-LC-Ad2,"cell growth, inhibitor",120 h,,EC50,429 nM
